Published values pooled from the literature.
Parts stem from different laboratories: compare values within a part only.

Sample 1 — method: protein-binding microarray; form: double-stranded DNA, one strand shown; sample: in vitro; tested at: 250 nM; setting: 60-bp whole probe; with: salmon DNA 0.4 mg/ml; reference: random background probes; reading: higher = stronger binding; constant ends, left off below: GCCTAGCAC … GTCTTGATTCGCTTGACGCTGCTG
Target: Interferon regulatory factor 7, full length, phosphomimetic (IRF7, Homo sapiens, UniProt Q92985, residues 1-503, S101K/S471D/S472D/S475D/S476D/S477D/S483D/S484D/S487D)
Construct (chain): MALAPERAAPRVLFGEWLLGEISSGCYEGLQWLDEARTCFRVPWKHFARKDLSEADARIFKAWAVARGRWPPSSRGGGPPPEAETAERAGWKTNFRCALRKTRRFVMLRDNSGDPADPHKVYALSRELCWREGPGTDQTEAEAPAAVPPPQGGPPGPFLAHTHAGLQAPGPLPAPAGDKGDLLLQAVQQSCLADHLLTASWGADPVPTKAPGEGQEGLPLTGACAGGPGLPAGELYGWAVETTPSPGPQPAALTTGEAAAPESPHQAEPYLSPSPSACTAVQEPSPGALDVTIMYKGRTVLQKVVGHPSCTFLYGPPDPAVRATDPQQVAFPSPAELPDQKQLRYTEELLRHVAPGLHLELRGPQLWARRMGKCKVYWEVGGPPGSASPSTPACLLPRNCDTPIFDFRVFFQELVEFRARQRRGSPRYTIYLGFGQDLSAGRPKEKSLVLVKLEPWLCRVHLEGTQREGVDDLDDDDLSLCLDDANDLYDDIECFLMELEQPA
Oligonucleotide	log fluorescence
TTGGATATCGGGACTGGATTAGTGCTA	-0.241 z-score
CACGGTATCGACTATCGGGACGTGCTA	0.23 z-score
TTAGGTCTGGACACTGGGTTAGTGCTA	-0.654 z-score
GACGGTTTCGGGGCTGGGGACGTGCTA	2.28 z-score
GACGCTCTCGGTATCGGGACGTGCTAG	0.639 z-score
TCATTTTTTTCTTTAAAACTGTGCTAG	0.842 z-score
TGTGCTTTCCTGATGGTTTTGTGCTAG	0.675 z-score
TTAGATTTCGGGTTTTGATTAGTGCTA	2.19 z-score
TTAGGTCTCGGTCGCGGTTAGTGCTAG	0.584 z-score
TTCGATCTCAGTATCGATTAGTGCTAG	0.857 z-score
CTGTGTGTCAGGTTTACTAGGGTGCTA	-0.444 z-score
TCAACTTTGGTTTGTACACTGTGCTAG	-0.37 z-score
TCACCTCTGGGATCCCAGACTGTGCTA	0.0318 z-score
TTCAGTTTTCCTATGTCATTGTGCTAG	1.43 z-score
TTAGGACTGCTTCTCCTTTTGTGCTAG	0.713 z-score
TTAGGTCTCGGTCTCGGTTAGTGCTAG	2.38 z-score
GACGCACTGCTTTTCCTGACGTGCTAG	0.25 z-score
TCATGAATGCCCTCTAACACTGTGCTA	-0.191 z-score
TCAACACTGGTTTTTACACTGTGCTAG	-0.473 z-score
GACAGACTGCTACTGCTGACGTGCTAG	-0.963 z-score
CTCTGTTTATGTCTGGGTATGTGCTAG	0.997 z-score
TTAGATTTCAGACTGGATGAGTGCTAG	-0.014 z-score
TCATTTCTGGTTCCCATACTGTGCTAG	1.9 z-score
TTATGTGTAGGTCTTAAATAGTGCTAG	-0.374 z-score
TCACCTGAATGAAAACATACTGTGCTA	-0.232 z-score

Sample 2 — method: competition protein-binding microarray; form: double-stranded DNA, one strand shown; sample: in vitro; tested at: 2 µM; with: Cbf1 competitor, 0.05 µM; reading: higher = stronger binding; constant ends, left off below: … GTCTTGATTCGCTTGACGCTGCTG
Target: Phosphate system positive regulatory protein PHO4, full length, GST-tagged (PHO4, Saccharomyces cerevisiae, UniProt P07270, residues 1-312)
Setting: whole 60-bp probe, lowest competitor level
Target sequence (chain): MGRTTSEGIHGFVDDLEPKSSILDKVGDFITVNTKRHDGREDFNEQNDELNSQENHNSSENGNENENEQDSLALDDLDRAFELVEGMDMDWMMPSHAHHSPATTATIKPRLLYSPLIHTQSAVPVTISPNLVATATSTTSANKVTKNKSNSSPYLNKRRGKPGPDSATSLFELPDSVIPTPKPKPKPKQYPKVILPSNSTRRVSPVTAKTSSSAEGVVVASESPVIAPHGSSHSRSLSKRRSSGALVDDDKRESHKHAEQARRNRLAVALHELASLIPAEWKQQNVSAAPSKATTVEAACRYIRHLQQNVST
Oligonucleotide	fluorescence intensity [a.u.]
TCATCCAAGTCAGGCCTCGTGAAAAAGAATTCTACT	5680
AATTCATAATCTTTGCACGTGACTCGCATTTGATAC	15200
CTTTCCCGATCTTTTCACGTGAACTTAGCACATTTG	9490
TACCACACAGTCATACTCGTGATGGATTATGTGGTA	8510
AGTAGCGGCTGCCGTCACGCACCATGGGTACCATCT	6410
TTCATCAATGAGACTCTCGTGAAGCTTACCTTGGAG	4090
CGTCCTAGTGATTTTCACGTGGGTTCCATGAGGAAG	14700
AAAGCGGTAATTTGTCACGTTACTTCACATATCTAT	8450
CATACCCAACCTTGTCACCTAACTTAAGATATTTGT	3640
TCTTCTTTGCCACATCACCTGACGCACCAAAGACAG	5440
TTGGTGAAGGTTCCTCTCGTGAAGACGCTGCTTTGG	3290
GTCTTGTCTCATTGAGTCGTGGGTGTCCCCACTTCA	7010
AGTGGTTGCGTTTGCCACGTACGAAAAGTTGTTACC	5770
GCATCAGTCGGTCAACATGCGCAGGATGTTCCGTTT	7280
CTTTCCCGATCTTGAACGGTGGGTGTAGCACATTTG	4290
TAGGACATTGTACGACGCGTGTCGGACCATGGAAAA	6900
GAGTGCTTTGTTTCTTCCGTGATGGTTTAATGGTCA	3610
TAAATAATGGTTTTTCACGTGCATCGAGTCCGTACT	13400
AACGATATTTCAGATCAGGTGACGGTTGCTGGTTCA	3470
CGCTAAAATTATAACGGCGTGCTGTAGAGAAAAACC	9780
CCTTTGTCTGCTGTGTATGTGATATGGAAAACTAAC	5910

Sample 3 — method: protein-binding microarray; form: double-stranded DNA, one strand shown; sample: in vitro; tested at: not given; reading: higher = stronger binding
Target: Protein max, full length (MAX, Homo sapiens, UniProt P61244-2, residues 1-151)
Setting: k-mer, scored over probes, only values ≥0.25
Oligonucleotide	E-score
ATGTGGGC	0.332
CACGCCGA	0.369
CGCACGAG	0.43
CCATGCCA	0.337
CGCACGCC	0.366
GTGCACCA	0.267
CACGTGCG	0.496
ACGCGTCG	0.293
GCGTGCCA	0.391
CATATGCC	0.314
CACATGAA	0.358
ATGGTCAC	0.29
CCATGGGG	0.376
CATGGCAA	0.36
AATACATG	0.286
ACGTGTCA	0.412
ATCACGGG	0.288
CATGGTTC	0.317
GCATGCTA	0.406

Sample 4 — method: aptamer microarray, sandwich; form: DNA with 2'F-ANA; sample: in vitro; tested at: 200 nM; with: Cy3 exosite-II aptamer, 400 nM; reading: higher = stronger binding; oligonucleotide: GGTTGGTGTGGTTGG
Target: Prothrombin, mature alpha-thrombin (F2, Homo sapiens, UniProt P00734)
Setting: whole 15-mer aptamer, many near background
Modification	mean fluorescence intensity
2'F-ANA at 1 2 4 6 8 10 11 12 13	56.4 a.u.
2'F-ANA at 2 3 4 5 7 10 11 12 13 14	48.2 a.u.
2'F-ANA at 2 4 6 7 11 12 13 14	93.8 a.u.
2'F-ANA at 1 2 3 4 5 6 8 10 13 14 15	60.6 a.u.
2'F-ANA at 3 5 6 10 12 13 14	46.9 a.u.
2'F-ANA at 5 8 10	46.9 a.u.
2'F-ANA at 1 2 4 6 7 9 10 12 14 15	74.5 a.u.
2'F-ANA at 1 3 4 7 9 10 15	62.6 a.u.
2'F-ANA at 1 2 3 4 5 6 10 12 13	49 a.u.
2'F-ANA at 1 2 3 5 8 10 12 14	42.8 a.u.
2'F-ANA at 1 2 3 5 6 7 9 10 12 14 15	64.2 a.u.
2'F-ANA at 1 4 5 8 9 10 11 12 13	50 a.u.
2'F-ANA at 2 3 5 6 7 9 10 11	63 a.u.
2'F-ANA at 2 7 13	395 a.u.
2'F-ANA at 1 5 7 10 11 12 15	48 a.u.
2'F-ANA at 2 3 5 6 7 9 12 13 15	109 a.u.
2'F-ANA at 5 6 7 8 10 11 12 14 15	53.4 a.u.
2'F-ANA at 1 2 3 4 6 9 11 12 13	157 a.u.
2'F-ANA at 4 5 6 7 9 10 11 12 15	48.1 a.u.
2'F-ANA at 2 4 5 6 8 9 10 11 12 13 14	48.5 a.u.
2'F-ANA at 1 2 3 6 12	428 a.u.
2'F-ANA at 4 6 8 9 10 11 14	53.9 a.u.

Sample 5 — method: protein binding microarray; form: double-stranded DNA, one strand shown; sample: in vitro; tested at: not given; reference: not given; reading: higher = stronger binding
Target: Histone acetyltransferase KAT6A, both winged helices, GST fusion (KAT6A, Homo sapiens, UniProt Q92794, residues 1-181)
Setting: 8-mer, flanks averaged, mean of 2 arrays, mostly near background
Target sequence (chain): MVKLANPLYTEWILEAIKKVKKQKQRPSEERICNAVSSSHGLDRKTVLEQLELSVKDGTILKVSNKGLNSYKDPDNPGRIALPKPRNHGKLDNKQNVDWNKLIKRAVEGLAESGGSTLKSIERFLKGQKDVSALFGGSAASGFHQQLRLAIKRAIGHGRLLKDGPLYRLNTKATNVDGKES
Oligonucleotide	E-score
GAGGAATC	-0.0137
ACCTTGTA	-0.13
CTCGAGGC	-0.0708
CGAATTCC	0.0659
CCGATTTC	0.00993
CAAGTCGG	0.00741
CGGGACAG	0.212
GCAATCAC	0.0913
GAATCACA	0.0563
CCTCCTAG	-0.148
ACGAACAT	-0.0596
TACCTGCA	0.0504
GGCCATTA	-0.0348
GCCCTGTA	0.00784
CGGAATCC	0.0829
CTGCACAC	-0.156
AAAGTTCG	-0.112
AATCTCTG	-0.218
TATGGCCA	-0.11
TGCAAACA	-0.0652
ACTCTGAA	-0.0317
GTCGCCTA	0.113
AGTGAGAC	-0.179
AGTAATGA	-0.124
AACATATT	-0.0142

Sample 6 — method: RNAcompete; form: RNA; sample: in vitro; tested at: 20 nM; setting: 7-mer, probes averaged, single round; reference: mean of 7-mers; reading: higher = stronger binding
Target: PABPC1L2, full length, GST fusion (mouse, UniProt A0ABA7IW68)
Construct (chain): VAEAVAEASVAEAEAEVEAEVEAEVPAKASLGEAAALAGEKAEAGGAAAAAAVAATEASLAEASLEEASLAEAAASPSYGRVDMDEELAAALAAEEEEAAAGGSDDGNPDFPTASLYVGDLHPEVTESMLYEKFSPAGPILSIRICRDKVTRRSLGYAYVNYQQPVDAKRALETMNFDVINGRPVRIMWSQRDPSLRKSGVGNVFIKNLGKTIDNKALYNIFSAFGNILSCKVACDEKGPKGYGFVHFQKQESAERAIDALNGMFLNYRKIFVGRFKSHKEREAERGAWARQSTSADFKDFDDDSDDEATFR
Oligonucleotide	7-mer Z-score
CAACCCA	-0.15
AUAUCCU	-0.258
CUAAUAG	-0.315
ACAGUUU	-0.251
CGAGCUG	-0.186
GCUGAUG	-0.108
UUAGGCC	-0.151
UAUACUA	-0.197
AGCUGGU	-0.0863
GUCCUUC	-0.403
CAACCUA	-0.0844
CCGAUCG	-0.291
CCACGCG	-0.186
AUAACGC	-0.0174
GCCAGGA	0.017
GUUCAGU	-0.246
GAAUCUC	-0.318
CCUCUGA	-0.173
UCCGCCC	-0.481

A few entries again (sample 2):
Oligonucleotide	fluorescence intensity [a.u.]
TCATCCAAGTCAGGCCTCGTGAAAAAGAATTCTACT	5680
AATTCATAATCTTTGCACGTGACTCGCATTTGATAC	15200
CTTTCCCGATCTTTTCACGTGAACTTAGCACATTTG	9490
TACCACACAGTCATACTCGTGATGGATTATGTGGTA	8510
AGTAGCGGCTGCCGTCACGCACCATGGGTACCATCT	6410
TTCATCAATGAGACTCTCGTGAAGCTTACCTTGGAG	4090
CGTCCTAGTGATTTTCACGTGGGTTCCATGAGGAAG	14700
AAAGCGGTAATTTGTCACGTTACTTCACATATCTAT	8450
CATACCCAACCTTGTCACCTAACTTAAGATATTTGT	3640
TCTTCTTTGCCACATCACCTGACGCACCAAAGACAG	5440
TTGGTGAAGGTTCCTCTCGTGAAGACGCTGCTTTGG	3290
GTCTTGTCTCATTGAGTCGTGGGTGTCCCCACTTCA	7010
AGTGGTTGCGTTTGCCACGTACGAAAAGTTGTTACC	5770
GCATCAGTCGGTCAACATGCGCAGGATGTTCCGTTT	7280
CTTTCCCGATCTTGAACGGTGGGTGTAGCACATTTG	4290
TAGGACATTGTACGACGCGTGTCGGACCATGGAAAA	6900
